# Measurements gathered from unrelated publications.
# Numbered parts are unrelated; each lists some results of a single study. Positions count from the first letter of the parent shown.

# Series 1
# Target: Histone acetyltransferase KAT6A, both winged helices, GST fusion (KAT6A, Homo sapiens, UniProt Q92794, residues 1-181)
# Technique: protein binding microarray
# Molecule type: double-stranded DNA, one strand shown
# Medium: in vitro
# Tested at: not given
# Setting: 8-mer, flanks averaged, mean of 2 arrays, mostly near background
# Baseline: not given
# Direction: higher = stronger binding
# Construct (chain): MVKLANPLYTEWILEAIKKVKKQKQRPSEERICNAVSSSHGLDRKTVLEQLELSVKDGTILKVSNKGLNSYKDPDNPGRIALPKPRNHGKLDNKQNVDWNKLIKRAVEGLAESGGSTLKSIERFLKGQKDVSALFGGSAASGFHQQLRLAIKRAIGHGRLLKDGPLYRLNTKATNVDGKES
Sequence,E-score
AACTGCTA,-0.16
ATGCACAC,-0.0156
GCCAATAC,0.017
CTCAGCAC,-0.161
AGAGCCAA,-0.116
GAACCCTC,-0.094
GCAAATGC,0.0675
CACCTAGC,-0.0668
CTGACAAA,-0.134
AAGGTCCA,-0.137
ACGCGACC,0.217
AGGGAGGG,-0.209
AGCCAGTA,-0.186
ATAAACCG,0.0459
AGACCGGA,0.0633
AAAATATG,-0.202
GAACCGCA,0.156
AATATGCC,-0.0686
AAGCAAGT,-0.0885
GGGTTAGA,-0.118
AGATATCC,-0.0641
AGTTGGTC,-0.164
ATACATGG,-0.112
CCATAGCA,-0.187
AACGACAT,-0.0332

# Series 2
# Target: CCNE1, cyclin fold, Cln2 fusion (human)
# Technique: yeast growth competition, sequencing
# Medium: yeast
# Setting: weak parent motif
# Baseline: not given
# Direction: higher = stronger binding
# Parent: FOXM1 docking peptide (human); PHLARPIKVESPP
Substitution,normalised enrichment score
PHLARPIKVEAPP [S11A],0.0307
PHLAAPIKVESPP [R5A],-0.228
AHLARPIKVESPP [P1A],-0.184
PHLARPIKVESAP [P12A],-0.564
PHLARPIKVASPP [E10A],-0.105
PHLARPIKAESPP [V9A],-0.202

# Series 3
# Target: Sal-like protein 4, full length isoform B (SALL4, Homo sapiens, UniProt Q9UJQ4-2, residues 1-616)
# Technique: universal PBM
# Molecule type: double-stranded DNA, one strand shown
# Medium: in vitro
# Tested at: not given
# Setting: 8-mer, flanks averaged, mean of replicates
# Direction: higher = stronger binding
# Construct (chain): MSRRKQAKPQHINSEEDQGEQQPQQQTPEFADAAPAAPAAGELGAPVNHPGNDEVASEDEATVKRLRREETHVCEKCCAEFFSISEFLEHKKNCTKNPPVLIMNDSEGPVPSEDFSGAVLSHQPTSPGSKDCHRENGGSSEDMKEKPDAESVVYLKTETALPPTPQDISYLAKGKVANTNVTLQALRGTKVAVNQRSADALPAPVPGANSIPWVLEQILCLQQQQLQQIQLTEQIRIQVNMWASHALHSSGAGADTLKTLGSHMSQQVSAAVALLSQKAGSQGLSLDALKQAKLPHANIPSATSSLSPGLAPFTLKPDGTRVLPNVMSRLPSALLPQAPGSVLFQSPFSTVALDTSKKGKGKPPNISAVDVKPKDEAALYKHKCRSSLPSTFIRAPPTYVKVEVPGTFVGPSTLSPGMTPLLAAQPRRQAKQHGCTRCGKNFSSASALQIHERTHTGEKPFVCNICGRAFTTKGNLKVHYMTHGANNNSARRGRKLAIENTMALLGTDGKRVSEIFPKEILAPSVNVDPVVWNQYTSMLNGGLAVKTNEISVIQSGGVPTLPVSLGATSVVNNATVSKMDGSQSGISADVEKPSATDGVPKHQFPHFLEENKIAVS
Sequence,E-score
GGCACCTA,-0.232
CTCATCAC,-0.0737
TTACCAAA,0.274
CTTGCCTC,-0.114
AGGCTAAC,-0.0875
CTAAAGCA,0.0299
ACGGCCGA,-0.166
AGAAGGGA,-0.231
ACAGTCGG,-0.125
ACAATAGT,0.17
ACTAAATA,0.335
CCGGATAG,-0.0985
ATATCTCG,0.311
ATTATGCG,0.264
TGATAAAA,0.291
CAATTGAA,0.0707
GCCCCCCC,-0.395
GGGGATTA,0.0261
GCCAATCC,-0.133
CGCCACCA,-0.166
TAGGCGGA,0.0851
ACATGAGG,0.0405
ACGGTGTG,-0.151
AGTAATGC,0.121

# Series 4
# Target: RNA binding protein fox-1 homolog 2, RRM domain, GST-SBP tag (RBFOX2, Homo sapiens, UniProt O43251-10, residues 100-194)
# Technique: RNA Bind-n-Seq
# Molecule type: RNA
# Medium: in vitro
# Tested at: 365 nM
# Setting: natural RNA segment, single round, ends assumed
# Baseline: no-protein control
# Direction: higher = stronger binding
# Residues (chain): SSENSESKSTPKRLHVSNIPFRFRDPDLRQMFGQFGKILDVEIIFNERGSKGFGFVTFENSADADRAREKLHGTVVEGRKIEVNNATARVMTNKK
Sequence,RBNS enrichment (R)
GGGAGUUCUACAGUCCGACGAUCUACUUGUUUAACACAAGUUUAUACCUGGUGUCAAUAAAACAAAUAUGUAUUUCUUGUCUACUAAGGAUUGCCAAGCUUUGUUUUGAAUUUCUGUAUUGGUCUCUAGGUGUUGGAAUUCUCGGGUGCCAA,0.422
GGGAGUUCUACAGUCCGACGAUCAAUGGUGACAAUAACAACUUCAGAGAUCUGUGAUGAUCAUUUAAAUGGAGUACUCAUCUUCUCAUAGAAGAGCCGAUUAAUAUUAUCUAAGUACUUUAGUAGAAAACAACUGGAAUUCUCGGGUGCCAA,0.344
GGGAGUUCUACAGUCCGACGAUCGGAGCAGAGCACACUCCCGGGAUUCAGGGACAUGGUCCUCACAGCUCGGAAGUAGCUCUAGUCCUGCGAGCAGGCACUUGGAACAGCAGUCUGUAAGCAGGAGUCAUUGCUGGAAUUCUCGGGUGCCAA,0.296
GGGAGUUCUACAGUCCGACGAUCAGAGUUGGAAAUAACCCUUUAACAUCAACAUGCUUCAAAGACUUUUUGCCUUUGGCCUAGUAAGAUGCCUCUCCAGCUACUGAGCCCACAAGUAACAUGAGCGGAUAAAAUGGAAUUCUCGGGUGCCAA,0.236
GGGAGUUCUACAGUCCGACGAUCAGCACCUGUGGUGGCUGCAAGUGGAAUCCUGGGGCCAAGGCUGCAGCUCAGGGCAAUGGCAGACCAGAUUGUGGGUCUCCAGCCUUGCAUGGCUGGCAGCCAGAUCCUGGUGGAAUUCUCGGGUGCCAA,1.07
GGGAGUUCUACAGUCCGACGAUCGCAUGCACUUGCCCUUAAAAACAAUGAUUUGUGAGUCCAGGAACAAUUUACUAUUUUUAAAAUAUUUUGCUGCUUCUGUUCUGGGUCUGAAUUCCCUUUUGUGCCAGAUGUGGAAUUCUCGGGUGCCAA,9.35
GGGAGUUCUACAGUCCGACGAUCAAUGGUUUGUUAGUUGCCAUUACAACUUUGUCUGGGUAGAGUUUUUGAGUUUUUGCAGUUCAGUAUCCCUCUGUCUAUUCACACUUCGUGUUAGUGGUAACUCAGUUUGUUGGAAUUCUCGGGUGCCAA,0.657
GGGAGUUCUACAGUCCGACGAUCUUGGCAGUAAAUUGGCACCGUGUCACACUGUUUCCUGGGAUUCAAGUAUGCAACCAGAACACAGGAGAAGAAAAGCUCCAGGAUCCCUGUCCCCAUCUGUCCUCUUGAUGUGGAAUUCUCGGGUGCCAA,2.51
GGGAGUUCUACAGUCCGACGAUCUAUUCCAAUGGCGGAUGGUAAUAUUCACCAUCUCUAAUUCAUUGGUCACUGGUAGGUAAGCAUGAGUUAAGGAAAGUCAAAAAUGAAAAUAUAUUUUGCUGUGUAUAAAUUGGAAUUCUCGGGUGCCAA,18.7
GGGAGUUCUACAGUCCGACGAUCAUUCUUAUUCUUUUAUAAUUAUGCGUGGAAGAAGUAGACACAUUAAACGAUUCCAGUUGGAAACAUGCACCUGCCUGAGGUUCCUUCUAAGUCCUGGGGCUCCUGAGUGGUGGAAUUCUCGGGUGCCAA,2.14
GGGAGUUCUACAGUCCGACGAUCGUAAAUGGCUCUAGAGUUAGAGUGACUGUUUGCUCUUCUGCUUUCUGGAAUGCAGAUGACAGUAUGGAAAGAAAGAAUAAUGAUUCUAUCUAAUAGGAAAGGAUUUCUUCUGGAAUUCUCGGGUGCCAA,0.565
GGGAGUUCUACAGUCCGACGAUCCAUCCCCACCCCAGCUGUUACCCAGCCCGGGGCAGGUGCAGCCCUUCCUCCCUGUCUCUGCAUCUGACUCUCUUUUGAGGUCCCUGUAUGUCUACCUCUGACUUCUGUGGUGGAAUUCUCGGGUGCCAA,0.532

# Series 5
# Target: Interferon regulatory factor 5, full length, phosphomimetic (IRF5, Homo sapiens, UniProt Q13568-2, residues 1-514, S451D/S453D/S456D/S462D)
# Technique: protein-binding microarray
# Molecule type: double-stranded DNA, one strand shown
# Medium: in vitro
# Tested at: 940 nM top
# Setting: 60-bp whole probe
# Added: salmon DNA 0.4 mg/ml
# Baseline: random background probes
# Direction: higher = stronger binding
# Constant ends, left off below: GCCTAGCAC … GTCTTGATTCGCTTGACGCTGCTG
Sequence,fitted relative affinity [z-score]
GGCGGTTTCGACTATCGGGACGTGCTA,8.28
GACGGATTGCTACTGCTGACGTGCTAG,-0.548
TTAGGTCTCCTTATCGTTTAGTGCTAG,0.572
TTAGATATCGGGTCTCGATTAGTGCTA,0.991
CTAGGTATCCTTATCCTTTAGTGCTAG,0.285
TTGTGTTGCTGTTTGAGGAAGTGCTAG,-0.0797
GACGGTTTCGGTTCCGGGAGGTGCTAG,13.2
TTAGGTCTCCTACTCCTTTAGTGCTAG,0.418
TTAGAACTGTGTTTCGATTAGTGCTAG,2.75
TCACGTTTACATTTTCCACTGTGCTAG,0.933
GACGGACCGGGGACTGGGGACGTGCTA,-0.209
GACGAACTGGGGACTGCAGACGTGCTA,-0.264
GACGAACTGATTCTCGAGACGTGCTAG,0.684
TTAGAACTGGACACTGGGTTAGTGCTA,-0.458
TTAGATATCGGCACTGGATTAGTGCTA,0.413
CAATATATATATTATATATTTGTGCTA,0.406
TTAGATCTCAGTCTCGATCAGTGCTAG,2.81
GAGGAACTGGGGTTTCGAGACGTGCTA,1.11

# Repeated from above (series 1):
Sequence,E-score
AAGGTCCA,-0.137
ACGCGACC,0.217
AGGGAGGG,-0.209
AGCCAGTA,-0.186
ATAAACCG,0.0459
